Results pooled from the literature.
Lines come from different studies, so protocols differ. Numbers after ± are the reported error.
Target: Cholinesterase (BCHE, Equus caballus, UniProt P81908)
Sequence of UniProt P81908 (whole entry, looked up): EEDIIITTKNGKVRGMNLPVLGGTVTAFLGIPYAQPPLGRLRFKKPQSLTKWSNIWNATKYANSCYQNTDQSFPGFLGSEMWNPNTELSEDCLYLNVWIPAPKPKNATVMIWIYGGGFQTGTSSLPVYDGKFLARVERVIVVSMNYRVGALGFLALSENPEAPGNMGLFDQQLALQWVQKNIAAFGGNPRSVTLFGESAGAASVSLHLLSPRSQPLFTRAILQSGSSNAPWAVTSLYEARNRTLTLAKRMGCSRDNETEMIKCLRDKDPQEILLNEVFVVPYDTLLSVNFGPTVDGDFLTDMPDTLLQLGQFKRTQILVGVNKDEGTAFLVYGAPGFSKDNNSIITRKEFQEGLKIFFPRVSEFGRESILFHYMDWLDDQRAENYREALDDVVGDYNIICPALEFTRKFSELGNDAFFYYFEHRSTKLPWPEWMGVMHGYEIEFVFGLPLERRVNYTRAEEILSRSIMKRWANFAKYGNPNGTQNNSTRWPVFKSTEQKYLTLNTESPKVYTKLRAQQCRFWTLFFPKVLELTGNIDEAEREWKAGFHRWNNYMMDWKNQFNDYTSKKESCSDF

For `Cc1ccc(-c2nc3ccc(/N=N/c4ccc([N+](=O)[O-])cc4)cc3c(-c3ccccc3)c2I)cc1`, inhibition read “no inhibition” (enzyme activity, inhibitor; 100 µM).
With `COC(=O)C1=CO[C@@H](O)[C@@H]2C(Cn3cc(C(O)(c4ccccc4)c4ccccc4)nn3)=CC[C@H]12` the inhibition was 99.72 ± 0.18% (inhibitor; horse serum BuChE; 10000 µM).
For `CCOP(=O)(Cc1ccc(NC(=O)CSc2nc3ccccc3o2)cc1)OCC`, the inhibition was 14.6 ± 2.4% (inhibitor, Ellman method; 10 µM).
The inhibition of `CCCCc1nc2ccc(/N=N/c3ccc(Cl)cc3)cc2c(-c2ccccc2)c1I` is reported as 52.3% (enzyme activity, inhibitor; 100 µM).
`COC(=O)C1=CO[C@@H](OC(C)=O)[C@@H]2C(Cn3cc(CON4C(=O)c5ccccc5C4=O)nn3)=CC[C@H]12` gave an inhibition of 27.29 ± 0.17% (inhibitor; horse serum BuChE; 10000 µM).
With `C[C@@H]1O[C@@H](OC[C@H]2O[C@@H](Oc3c(-c4ccc(O)cc4)oc4cc(O)cc(O)c4c3=O)[C@H](O)[C@@H](O)[C@@H]2O)[C@H](O)[C@H](O)[C@H]1O` the inhibition was 0% (enzyme activity, inhibitor, Ellman; 100 µg/mL).
For `CC(C)(C)c1ccc(Nc2c3c(nc4ccccc24)CCCC3)cc1`, the inhibition was 70.1% (enzyme activity, inhibitor; 100 µM).
For `O=C(O)CCCN1C(=O)/C(=C/c2cn(-c3ccccc3)nc2-c2ccc(OCc3ccccc3F)cc2)SC1=S`, the inhibition was < 0% (10 µM).
With `COc1ccnc(Nc2c3c(nc4ccc(Cl)cc24)CCCC3)c1` the inhibition was -131% (enzyme activity, inhibitor; 100 µM).
`COC(=O)C1=CO[C@@H](O)[C@@H]2C(Cn3cc(CN4C(=O)c5ccccc5C4=O)nn3)=CC[C@H]12` gave an inhibition of 81.22 ± 0.38% (inhibitor; horse serum BuChE; 10000 µM).
With `COc1cc(/C=C/C(=O)OC[C@H]2O[C@@H](Oc3c(-c4ccc(O)cc4)oc4cc(O)cc(O)c4c3=O)[C@H](O)[C@@H](OC(=O)/C=C/c3ccc(O)cc3)[C@@H]2O)ccc1O` the inhibition was 54.2% (enzyme activity, inhibitor, Ellman; 100 µg/mL).
The inhibition of `COC(=O)C1=CO[C@@H](O)[C@@H]2C(Cn3cc(-c4ccccc4)nn3)=CC[C@H]12` is reported as 67.51 ± 0.16% (inhibitor; horse serum BuChE; 10000 µM).
`CCCCc1cc(-c2ccccc2)c2cc(/N=N/c3ccc([N+](=O)[O-])cc3)ccc2n1` has an inhibition of 44.5% (enzyme activity, inhibitor; 100 µM).
With `Cc1ccnc(Nc2c3c(nc4ccc(Cl)cc24)CCCC3)c1` the inhibition was 53.7% (enzyme activity, inhibitor; 50 µM).
`O=S(=O)(F)CCc1cn(-c2ccc(Br)cc2)nn1` has an inhibition of 82.4% (Ellman; horse; 20 µM).
With `O=[N+]([O-])c1ccc(/N=N/c2ccc3nc(-c4ccccc4)cc(-c4ccccc4)c3c2)cc1` the inhibition was > 65% (enzyme activity, inhibitor; 100 µM).
For `CCCCCn1c(SC(C(=O)NCc2ccccc2)C(=O)NCc2ccccc2)nc2cc(C(=O)Nc3cccc(C(F)(F)F)c3)ccc2c1=O`, the inhibition was 34.3 ± 1.8% (10 µM).
`Clc1ccc(/N=N/c2ccc3nc(-c4ccccc4)c(I)c(-c4ccccc4)c3c2)cc1` has an inhibition of 48.7% (enzyme activity, inhibitor; 100 µM).
For `COc1ccnc(Nc2c3c(nc4ccccc24)CCC(C)C3)c1` (centres unmarked), the inhibition was -113% (enzyme activity, inhibitor; 50 µM).
For `COC(=O)C1=CO[C@@H](OC(C)=O)[C@@H]2C(Cn3cc(CN(C)Cc4ccccc4)nn3)=CC[C@H]12`, the inhibition was 41.96 ± 0.12% (inhibitor; horse serum BuChE; 10000 µM).
`O=C1Nc2ccccc2/C1=N/NC(=O)c1cc(-c2ccc3c4c(cccc24)CC3)n[nH]1` has an inhibition of < 0% (10 µM).
`COC(=O)C1=CO[C@@H](OC(C)=O)[C@@H]2C(Cn3cc(COC(c4ccccc4)(c4ccccc4)c4ccccc4)nn3)=CC[C@H]12` gave an inhibition of 1.21 ± 0.18% (inhibitor; horse serum BuChE; 10000 µM).
`c1ccc(Nc2c3c(nc4ccccc24)CCCC3)cc1` has an inhibition of -31.1% (enzyme activity, inhibitor; 100 µM).
The inhibition of `CCCCCc1nc2ccc(/N=N/c3ccc(Cl)cc3)cc2c(-c2ccccc2)c1I` is reported as 36.3% (enzyme activity, inhibitor; 100 µM).
The inhibition of `O=S(=O)(F)CCc1cn(Cc2cccc(-c3ccccc3)c2)nn1` is reported as 30.6% (inhibitor, Ellman; 20 µM).
The inhibition of `C=CCCCCCCCCCOCc1cn(CC2=CC[C@@H]3C(C(=O)OC)=CO[C@@H](OC(C)=O)[C@H]23)nn1` is reported as 25.56 ± 0.05% (inhibitor; horse serum BuChE; 10000 µM).
`COc1ccc(Nc2c3c(nc4ccccc24)CCCC3)cc1` gave an inhibition of < -200% (enzyme activity, inhibitor; 50 µM).
The inhibition of `COC(=O)C1=CO[C@@H](OC(C)=O)[C@@H]2C(Cn3cc(CCCO)nn3)=CC[C@H]12` is reported as 27.54 ± 0.2% (inhibitor; horse serum BuChE; 10000 µM).
The inhibition of `c1ccc2c(Nc3c4c(nc5ccccc35)CCCC4)cccc2c1` is reported as 79.8% (enzyme activity, inhibitor; 100 µM).
`O=S(=O)(F)CCc1cn(-c2ccc(Cl)c(Cl)c2)nn1` has an inhibition of 88.8% (Ellman; horse; 20 µM).
The inhibition of `COc1ccc(Nc2c3c(nc4ccc(Cl)cc24)CCCC3)nc1` is reported as -47.1% (enzyme activity, inhibitor; 100 µM).
Under inhibition, `Ic1ccccc1/N=N/c1ccc2nc(-c3ccccc3)c(I)c(-c3ccccc3)c2c1` is recorded as “no inhibition” (enzyme activity, inhibitor; 100 µM).

Excerpt of the above:
For `O=C(O)CCCN1C(=O)/C(=C/c2cn(-c3ccccc3)nc2-c2ccc(OCc3ccccc3F)cc2)SC1=S`, the inhibition was < 0% (10 µM).
With `COc1ccnc(Nc2c3c(nc4ccc(Cl)cc24)CCCC3)c1` the inhibition was -131% (enzyme activity, inhibitor; 100 µM).
`COC(=O)C1=CO[C@@H](O)[C@@H]2C(Cn3cc(CN4C(=O)c5ccccc5C4=O)nn3)=CC[C@H]12` gave an inhibition of 81.22 ± 0.38% (inhibitor; horse serum BuChE; 10000 µM).
With `COc1cc(/C=C/C(=O)OC[C@H]2O[C@@H](Oc3c(-c4ccc(O)cc4)oc4cc(O)cc(O)c4c3=O)[C@H](O)[C@@H](OC(=O)/C=C/c3ccc(O)cc3)[C@@H]2O)ccc1O` the inhibition was 54.2% (enzyme activity, inhibitor, Ellman; 100 µg/mL).
